Measured values of several laboratories.
Parts stem from different laboratories: compare values within a part only.
Sequence of UniProt P35916 (whole entry, looked up): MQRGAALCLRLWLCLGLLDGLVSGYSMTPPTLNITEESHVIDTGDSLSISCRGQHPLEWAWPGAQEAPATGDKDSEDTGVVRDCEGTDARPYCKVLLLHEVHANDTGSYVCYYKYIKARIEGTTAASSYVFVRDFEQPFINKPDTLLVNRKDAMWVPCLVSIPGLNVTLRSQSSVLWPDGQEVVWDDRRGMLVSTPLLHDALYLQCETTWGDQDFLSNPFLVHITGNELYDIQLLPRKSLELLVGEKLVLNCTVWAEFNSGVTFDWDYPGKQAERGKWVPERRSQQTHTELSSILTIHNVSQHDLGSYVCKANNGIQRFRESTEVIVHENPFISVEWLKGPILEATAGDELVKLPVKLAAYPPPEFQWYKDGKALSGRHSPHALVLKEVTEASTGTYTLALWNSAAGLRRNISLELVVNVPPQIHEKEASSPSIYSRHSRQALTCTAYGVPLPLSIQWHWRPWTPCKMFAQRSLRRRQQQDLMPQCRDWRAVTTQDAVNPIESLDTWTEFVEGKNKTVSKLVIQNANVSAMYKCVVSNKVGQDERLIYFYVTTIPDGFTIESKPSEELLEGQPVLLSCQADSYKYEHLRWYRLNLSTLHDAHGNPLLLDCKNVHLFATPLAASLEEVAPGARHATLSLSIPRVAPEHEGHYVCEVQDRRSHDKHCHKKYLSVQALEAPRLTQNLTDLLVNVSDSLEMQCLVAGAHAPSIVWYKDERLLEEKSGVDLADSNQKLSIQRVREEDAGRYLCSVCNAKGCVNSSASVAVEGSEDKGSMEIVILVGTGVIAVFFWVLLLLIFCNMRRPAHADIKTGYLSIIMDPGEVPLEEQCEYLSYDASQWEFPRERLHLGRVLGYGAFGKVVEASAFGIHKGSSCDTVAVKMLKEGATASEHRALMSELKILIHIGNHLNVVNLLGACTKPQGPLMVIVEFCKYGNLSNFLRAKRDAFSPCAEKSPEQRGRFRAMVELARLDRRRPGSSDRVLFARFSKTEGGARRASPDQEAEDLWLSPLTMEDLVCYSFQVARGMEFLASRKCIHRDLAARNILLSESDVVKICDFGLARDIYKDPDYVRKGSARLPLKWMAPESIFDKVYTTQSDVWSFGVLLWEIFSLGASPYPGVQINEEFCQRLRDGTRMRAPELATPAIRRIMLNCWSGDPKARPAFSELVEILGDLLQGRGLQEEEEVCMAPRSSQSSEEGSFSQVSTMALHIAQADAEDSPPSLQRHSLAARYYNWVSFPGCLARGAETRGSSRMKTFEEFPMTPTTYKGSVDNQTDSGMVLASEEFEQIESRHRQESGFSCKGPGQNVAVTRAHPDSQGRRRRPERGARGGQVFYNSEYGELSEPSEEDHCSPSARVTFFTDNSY
Sequence of UniProt P09769 (whole entry, looked up): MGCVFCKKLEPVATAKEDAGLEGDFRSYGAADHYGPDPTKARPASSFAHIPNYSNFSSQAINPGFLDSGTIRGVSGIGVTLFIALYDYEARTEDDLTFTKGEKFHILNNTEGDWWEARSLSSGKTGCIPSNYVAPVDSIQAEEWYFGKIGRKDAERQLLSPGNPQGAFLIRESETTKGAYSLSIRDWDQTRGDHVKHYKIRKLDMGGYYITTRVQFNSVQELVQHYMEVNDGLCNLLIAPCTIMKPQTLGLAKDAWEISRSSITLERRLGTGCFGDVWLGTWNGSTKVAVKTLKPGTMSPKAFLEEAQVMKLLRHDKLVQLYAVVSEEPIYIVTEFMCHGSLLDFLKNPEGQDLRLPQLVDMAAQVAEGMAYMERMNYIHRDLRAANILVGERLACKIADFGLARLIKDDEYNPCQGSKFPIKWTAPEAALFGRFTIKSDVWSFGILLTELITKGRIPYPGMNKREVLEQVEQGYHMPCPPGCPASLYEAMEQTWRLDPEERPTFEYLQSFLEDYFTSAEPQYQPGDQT
Sequence of UniProt Q9UBE8 (whole entry, looked up): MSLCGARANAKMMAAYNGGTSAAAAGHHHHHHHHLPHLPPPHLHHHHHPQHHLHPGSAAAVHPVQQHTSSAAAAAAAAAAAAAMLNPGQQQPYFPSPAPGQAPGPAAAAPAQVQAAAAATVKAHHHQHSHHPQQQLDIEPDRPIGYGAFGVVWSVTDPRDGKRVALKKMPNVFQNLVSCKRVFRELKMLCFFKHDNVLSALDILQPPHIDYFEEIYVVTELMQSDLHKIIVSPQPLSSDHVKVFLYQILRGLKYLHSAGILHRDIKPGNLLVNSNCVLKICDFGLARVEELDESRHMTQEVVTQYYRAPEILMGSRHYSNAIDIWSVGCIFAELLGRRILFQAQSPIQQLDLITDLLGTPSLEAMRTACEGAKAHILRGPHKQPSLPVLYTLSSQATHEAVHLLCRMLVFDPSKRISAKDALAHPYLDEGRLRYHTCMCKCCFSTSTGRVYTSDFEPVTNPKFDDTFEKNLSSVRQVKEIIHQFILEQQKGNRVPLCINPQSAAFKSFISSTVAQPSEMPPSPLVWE
Sequence of UniProt Q16512 (whole entry, looked up): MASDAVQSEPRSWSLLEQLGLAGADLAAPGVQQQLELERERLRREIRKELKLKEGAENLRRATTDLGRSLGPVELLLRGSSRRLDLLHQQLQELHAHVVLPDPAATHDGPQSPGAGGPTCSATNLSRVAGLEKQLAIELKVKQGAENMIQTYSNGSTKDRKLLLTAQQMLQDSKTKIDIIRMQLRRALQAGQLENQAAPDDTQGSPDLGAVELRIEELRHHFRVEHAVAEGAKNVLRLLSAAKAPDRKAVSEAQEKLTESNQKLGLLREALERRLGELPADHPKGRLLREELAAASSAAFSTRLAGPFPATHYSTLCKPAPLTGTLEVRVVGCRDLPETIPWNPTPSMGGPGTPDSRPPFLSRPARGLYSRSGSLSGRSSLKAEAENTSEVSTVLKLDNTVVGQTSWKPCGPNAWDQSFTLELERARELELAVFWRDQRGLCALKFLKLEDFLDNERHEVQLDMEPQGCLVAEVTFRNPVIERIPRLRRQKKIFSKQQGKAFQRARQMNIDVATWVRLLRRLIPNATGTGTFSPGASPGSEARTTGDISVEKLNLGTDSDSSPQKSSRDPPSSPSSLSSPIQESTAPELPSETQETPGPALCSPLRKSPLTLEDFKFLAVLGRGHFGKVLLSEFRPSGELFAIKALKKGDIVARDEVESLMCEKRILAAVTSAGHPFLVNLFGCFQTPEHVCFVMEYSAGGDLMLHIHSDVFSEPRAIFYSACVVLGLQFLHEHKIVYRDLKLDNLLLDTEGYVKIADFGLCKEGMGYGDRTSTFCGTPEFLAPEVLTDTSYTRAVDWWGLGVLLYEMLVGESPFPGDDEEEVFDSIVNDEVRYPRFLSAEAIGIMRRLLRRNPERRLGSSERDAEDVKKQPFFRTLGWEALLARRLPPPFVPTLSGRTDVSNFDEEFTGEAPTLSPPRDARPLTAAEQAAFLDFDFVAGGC
Sequence of UniProt Q9UM73 (whole entry, looked up): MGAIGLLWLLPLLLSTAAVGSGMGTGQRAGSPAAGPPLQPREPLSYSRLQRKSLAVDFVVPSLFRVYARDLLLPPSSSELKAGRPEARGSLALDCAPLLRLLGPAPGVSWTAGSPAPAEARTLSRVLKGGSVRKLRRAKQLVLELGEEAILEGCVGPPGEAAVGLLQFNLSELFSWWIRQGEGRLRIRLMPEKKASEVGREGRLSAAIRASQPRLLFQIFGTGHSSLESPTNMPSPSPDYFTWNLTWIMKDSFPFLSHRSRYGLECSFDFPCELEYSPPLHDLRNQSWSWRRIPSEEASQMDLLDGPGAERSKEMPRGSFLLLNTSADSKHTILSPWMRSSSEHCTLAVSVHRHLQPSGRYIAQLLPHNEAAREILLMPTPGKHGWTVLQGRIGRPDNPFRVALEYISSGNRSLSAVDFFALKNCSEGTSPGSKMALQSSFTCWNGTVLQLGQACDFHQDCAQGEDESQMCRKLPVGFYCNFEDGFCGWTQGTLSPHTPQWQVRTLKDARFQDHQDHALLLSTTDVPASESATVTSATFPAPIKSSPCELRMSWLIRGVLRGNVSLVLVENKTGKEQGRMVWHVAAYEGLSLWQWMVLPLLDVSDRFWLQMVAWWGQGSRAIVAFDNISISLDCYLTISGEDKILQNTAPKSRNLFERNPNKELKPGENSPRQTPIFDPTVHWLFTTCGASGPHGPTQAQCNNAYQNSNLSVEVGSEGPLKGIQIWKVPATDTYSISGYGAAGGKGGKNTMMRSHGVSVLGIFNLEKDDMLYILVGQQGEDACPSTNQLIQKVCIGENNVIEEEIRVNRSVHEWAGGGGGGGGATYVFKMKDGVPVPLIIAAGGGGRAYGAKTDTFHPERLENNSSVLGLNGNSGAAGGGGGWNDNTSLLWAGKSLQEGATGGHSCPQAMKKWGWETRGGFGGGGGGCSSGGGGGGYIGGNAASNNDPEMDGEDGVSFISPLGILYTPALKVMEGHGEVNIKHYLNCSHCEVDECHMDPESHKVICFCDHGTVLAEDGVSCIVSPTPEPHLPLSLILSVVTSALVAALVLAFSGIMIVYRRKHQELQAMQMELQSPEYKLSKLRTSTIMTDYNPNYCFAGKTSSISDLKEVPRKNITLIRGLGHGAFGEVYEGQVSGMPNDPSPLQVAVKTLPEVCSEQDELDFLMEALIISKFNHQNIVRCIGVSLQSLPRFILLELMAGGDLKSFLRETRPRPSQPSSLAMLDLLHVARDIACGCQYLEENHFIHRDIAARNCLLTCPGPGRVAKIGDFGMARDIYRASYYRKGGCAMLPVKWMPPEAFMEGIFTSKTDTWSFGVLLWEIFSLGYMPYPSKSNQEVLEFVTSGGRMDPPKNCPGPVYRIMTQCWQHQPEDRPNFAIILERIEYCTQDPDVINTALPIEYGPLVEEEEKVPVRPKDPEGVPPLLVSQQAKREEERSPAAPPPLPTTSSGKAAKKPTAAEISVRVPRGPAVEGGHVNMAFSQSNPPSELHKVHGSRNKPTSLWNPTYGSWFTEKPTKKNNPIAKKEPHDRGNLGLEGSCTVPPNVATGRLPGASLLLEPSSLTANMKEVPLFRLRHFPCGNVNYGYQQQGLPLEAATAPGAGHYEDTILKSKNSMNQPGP

Series 1
SMILES: CCCCc1c(-c2ccc(OC)cc2)[nH]c2nccnc12
Observed: enzyme activity
Action: inhibitor
Concentration: 0.5 µM
Reference: control
target	remaining activity [%]
Serine/threonine-protein kinase NLK (NLK, Homo sapiens, UniProt Q9UBE8)	88.4
Tyrosine-protein kinase Fer (FER, Homo sapiens, UniProt P16591)	59.8
Tyrosine-protein kinase Fgr (FGR, Homo sapiens, UniProt P09769)	57.1
Serine/threonine-protein kinase N1 (PKN1, Homo sapiens, UniProt Q16512)	89.1
PAS domain-containing serine/threonine-protein kinase (PASK, Homo sapiens, UniProt Q96RG2)	97.6
Vascular endothelial growth factor receptor 3 (FLT4, Homo sapiens, UniProt P35916)	81.1
ALK tyrosine kinase receptor (ALK, Homo sapiens, UniProt Q9UM73)	96.7
Insulin receptor (INSR, Homo sapiens, UniProt P06213)	97.6

Series 2
SMILES: CC(C)n1cnc(-c2ccc(F)cc2)c1-c1ncc(C(=O)Nc2ccc(N3CCN(C)CC3)cc2)[nH]1
method	measured	species	route	dose	setting	patients with TEAE [%]
phase 2a trial	–	patients with idiopathic pulmonary fibrosis	–	dose not given	nervous system disorders SOC, grade 4, all arms	0
phase 2a trial	–	idiopathic pulmonary fibrosis patients	oral	60 mg once daily	LDL increased, grade 3	0
phase 2a trial	–	patients with idiopathic pulmonary fibrosis	–	60 mg once daily	skin papilloma, maximum intensity grade 4	0
phase 2a trial	–	idiopathic pulmonary fibrosis patients	oral	30 mg once daily	musculoskeletal disorders, grade 1	0
–	intervertebral disc protrusion	idiopathic pulmonary fibrosis patients	–	30 mg once daily	–	0
phase 2a trial	–	idiopathic pulmonary fibrosis patients	oral	60 mg once daily	blood/lymphatic disorders, grade 4	0
phase 2a trial	–	idiopathic pulmonary fibrosis patients	oral	60 mg once daily	ESR increased, grade 5	0
phase 2a trial	–	idiopathic pulmonary fibrosis patients	oral	dose not given	urine red cells, grade 4, all arms	0

Further values, each from its own experiment
Substance	tested on	assay	system	conditions	how to read	quantity	value
CCC(=O)N[C@@H]1CC[C@H](C(=O)N(C)c2ccc(-c3nc4ccccc4o3)cc2)C1	Mu-type opioid receptor (OPRM1, Homo sapiens, UniProt P35372)	binding, radioligand binding	–	10 µM	–	inhibition	14%
AAAVRKPIVLKR	human cyclin D1	peptide binding, yeast competitive growth sequencing	peptide, Saccharomyces cerevisiae, cyclin D1-Cln2 fusion	concentration not given, peptide tiling library	reference: Cln2 fusion control, direction not given	binding enrichment score	1.09
CC(=O)[C@H]1CC[C@H]2[C@@H]3CC[C@H]4C[C@H](O)CC[C@]4(C)[C@H]3C(=O)C[C@]12C	mouse MPNST tumor cells	high-content immunofluorescence imaging, measured: nuclear SOX9	–	10 µM, 12 h, mean of 2 replicates	reference: DMSO control, higher = more nuclear SOX9	nuclear SOX9 intensity	97.9 % of DMSO

For quick reference, copied from above (series 2):
method	measured	species	route	dose	setting	patients with TEAE [%]
–	intervertebral disc protrusion	idiopathic pulmonary fibrosis patients	–	30 mg once daily	–	0
phase 2a trial	–	idiopathic pulmonary fibrosis patients	oral	30 mg once daily	musculoskeletal disorders, grade 1	0
